# Measured values from different studies.
# Each numbered part is a random draw from the data of one study; scales do not carry over between parts.

# Block 1
# Target: Protein max, full length (MAX, Homo sapiens, UniProt P61244-2, residues 1-151)
# Method: protein-binding microarray
# Form: double-stranded DNA, one strand shown
# Sample: in vitro
# Tested at: not given
# Setting: k-mer, scored over probes, only values ≥0.25
# Direction: higher = stronger binding
Sequence,E-score
CAGGCATG,0.379
GGTGTGCA,0.29
ACGCGGGA,0.382
AGGTGGCA,0.251
ATGCGCCA,0.315
ATCCACAT,0.379
CTCGTGGA,0.425
ATGTGCAC,0.368
AGTGCACG,0.372
GCGTGGAA,0.401
CACGAGGG,0.471
ACGCACAC,0.355
AAGGCGTG,0.367

# Block 2
# Target: RNA binding protein fox-1 homolog 2, RRM domain, GST-SBP tag (RBFOX2, Homo sapiens, UniProt O43251-10, residues 100-194)
# Method: RNA Bind-n-Seq
# Form: RNA
# Sample: in vitro
# Tested at: 365 nM
# Setting: natural RNA segment, single round, ends assumed
# Relative to: no-protein control
# Direction: higher = stronger binding
# Construct (chain): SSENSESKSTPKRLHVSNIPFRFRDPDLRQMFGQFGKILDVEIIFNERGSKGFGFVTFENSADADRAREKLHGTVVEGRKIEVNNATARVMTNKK
Sequence,RBNS enrichment (R)
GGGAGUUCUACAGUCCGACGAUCUCAGGCAACAGGACAGCCAUCUCUCUGCUUCAGCCCUCUGCCUACAGGGAUUAGGGAAAUGGAGCUCUGGCUUUGAAGUUAUUUGUGAGUUUAGCAACCUUCCAGUUACCUGGAAUUCUCGGGUGCCAA,0.5
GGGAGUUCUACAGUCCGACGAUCUCCAAAGAAUUCUGUAUAAACAUAUGCCAAUUCCCUAUGAUGGUCUAGAGUUAGGAAUGAGUGUUUAUGGUGUUGCUUAUAGAACAACUCAGGUAAUCUCCAUUUCUGGUUGGAAUUCUCGGGUGCCAA,0.509
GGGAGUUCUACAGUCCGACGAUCUGGUUGAGCCUCUGGAGAUCAUUGUAACCAAUCCUGCCAGACCUGUUUGGGGCAGUGGGGAGCAAACCUAGAUAAGGACCUGUUUGGGGCAGCAGGGAGCAAAAUCUCCUUGGAAUUCUCGGGUGCCAA,0.657
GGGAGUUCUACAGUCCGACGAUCAGUCCUCAGUUAAGGCAAGAAUGCAUGUGUUUCUUAAGAAUGAGUACUCUGCGUUGAUGUUUAUGAGAAGGUGGUCAUUAGAUGCAGUCUUUUCCUUUUUAAUCCCCUCUUGGAAUUCUCGGGUGCCAA,10.5
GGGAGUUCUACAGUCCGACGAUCCCAAGCAGUCGAUGUCAAGGUUACGACACCAGUGACAGAGCAUGGUUUGGAAAUCCUUUAUUCUCUUUUCUCAAUACCAAGUGGUGCCUUACUGUGGCAGCAGUGUCACUUGGAAUUCUCGGGUGCCAA,0.648
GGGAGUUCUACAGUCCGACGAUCGUUCAUUAGAGCAGUCUGGCCACUGGGGUGCCAGUUCGUUGGCCUUCCACGCUGAGGUACCCUCUGCAGUGGUAGGCAGCCUGCCCAUAUGGCCACUUGGGCCUGACUCUUGGAAUUCUCGGGUGCCAA,0.276
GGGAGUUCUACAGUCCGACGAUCAUAUCAAGGUGGCAGUGGAAGGGGGUGAGCUAAGGACCCAGCAAGGUUUCCUGGAGGCAAAGUUUAUGAAAUCCUUUCUGUAACUCCAUAAAGAUGUCUGCAGCUAUUUCUGGAAUUCUCGGGUGCCAA,0.544
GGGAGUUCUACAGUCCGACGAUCGAAAUGAAAUUAAAUGAGAUUACAGCAUAAUGAAGAAGAAAACUAGAAUCUAACAGGUAUGACACAUUCAGUUAUUCUAACAGGGCACAGUACUGUGCUAUAUGUAGCCGUGGAAUUCUCGGGUGCCAA,1.26
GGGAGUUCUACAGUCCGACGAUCUGACAUUUACUCUUAUGUCUUUCUCUGGUCAUUCUGUUUUGUGGUACAAUCACCGUGUAAGUUAUGGUCUAAACCUGUCCUUUUGAGAGAGAAAAAGAUACUGUUGAUAAUGGAAUUCUCGGGUGCCAA,0.502
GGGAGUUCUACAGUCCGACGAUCACGACCUCAUGUGAGCGCGGGCAGCGGGCAGGGACUGAAGCCUGACCGACCUCCAGCAGCACUCGGACGUCCCCGGACCAGCCCUCAGUCUCGGUCCACGCUGCUUUCUUUGGAAUUCUCGGGUGCCAA,0.315
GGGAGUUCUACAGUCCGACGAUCCCCUACUUUUCACCCCGCUGCCCCUCGGGAGGACUGCAGCUCGCUCCUGUUGGGAUCGCAAAGCUCGGGUACCUGCCCCGGCUUUGCUCCACACAGUCACGGGGUCCAUUUGGAAUUCUCGGGUGCCAA,0.292
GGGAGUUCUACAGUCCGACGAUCCAGACCUUGACCAAAGAUGCUGAAAUACAGUGUUGGGAUCCUUGUACUCUGGAACCAUGCCAUCACUGAUGUCAUGCUCAUGCUACCUAGCAUGCAGGAGGAUGCCAUCUUGGAAUUCUCGGGUGCCAA,0.862

# Block 3
# Target: Prothrombin, mature alpha-thrombin (F2, Homo sapiens, UniProt P00734)
# Method: aptamer microarray, sandwich
# Form: DNA with 2'F-ANA
# Sample: in vitro
# Tested at: 200 nM
# Setting: whole 15-mer aptamer, many near background
# Together with: Cy3 exosite-II aptamer, 400 nM
# Direction: higher = stronger binding
# Sequence: GGTTGGTGTGGTTGG
Modification,mean fluorescence intensity [a.u.]
2'F-ANA at 2 3 5 7 9 12 15,196
2'F-ANA at 1 3 5 6 8 9 11 13 14 15,58.4
2'F-ANA at 1 2 8 12 14 15,113
2'F-ANA at 1 4 5 11 12 13 14 15,101
2'F-ANA at 2 5 8 10 15,56
2'F-ANA at 1 2 4 7 11 12 14,61.6
2'F-ANA at 1 3 5 6 7 8 9 14 15,55.5
2'F-ANA at 1 3 5 6 7 8 9 12 13 15,106
2'F-ANA at 3 8 9 10 11 12 13 15,435
2'F-ANA at 2 5 7 12 14,65.8
2'F-ANA at 1 6 7 9 12 14,60.6
2'F-ANA at 4 5 8 10,54.1
2'F-ANA at 1 2 5 6 8 10 11 12 13,49.6
2'F-ANA at 2 3 5 7 8 13 15,77.2
2'F-ANA at 4 5 6 7 8 10 12 13 14,48.6
2'F-ANA at 1 2 5 6 7 9 10 12 14 15,50
2'F-ANA at 1 2 3 6 7 9 10 11 12 13 14,61
2'F-ANA at 1 4 5 7 10 13,43.3
2'F-ANA at 2 3 4 7 8 12 13,821
2'F-ANA at 2 4 7 9 10 14,67.6
2'F-ANA at 3 6 8 11 12 13 15,966
2'F-ANA at 2 4 6 7 9 11 12 14 15,94.6
2'F-ANA at 1 2 4 5 8 10 13 15,85.6
2'F-ANA at 4 6 7 13 14 15,81.5
2'F-ANA at 1 2 4 6 7 8 9 12 13,180

# Block 4
# Target: RING finger protein unkempt homolog, zinc fingers 1-6, GST-SBP tag (UNK, Homo sapiens, UniProt Q9C0B0, residues 30-357)
# Method: RNA Bind-n-Seq
# Form: RNA
# Sample: in vitro
# Tested at: not given
# Setting: RNA with constant flanks, human and mouse sites, ends assumed
# Relative to: input RNA pool
# Direction: higher = stronger binding
# Residues (chain): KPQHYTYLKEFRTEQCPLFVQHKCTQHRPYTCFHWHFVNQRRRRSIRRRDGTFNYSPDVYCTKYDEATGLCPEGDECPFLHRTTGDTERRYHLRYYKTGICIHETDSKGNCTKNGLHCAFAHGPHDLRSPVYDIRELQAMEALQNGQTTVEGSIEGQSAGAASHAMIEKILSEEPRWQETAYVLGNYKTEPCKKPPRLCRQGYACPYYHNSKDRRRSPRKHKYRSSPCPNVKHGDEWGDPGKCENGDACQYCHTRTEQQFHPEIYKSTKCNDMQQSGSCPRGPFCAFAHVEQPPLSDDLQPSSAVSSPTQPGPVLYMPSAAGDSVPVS
Sequence,bound/input enrichment
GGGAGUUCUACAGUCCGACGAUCAGAGAUCAAAGUAAAGGUAUUCUAAAGAUUUCAGCUGUCCCUGAACUAACUGAUGUGAAUACUGGAAAACCAGUAUCUCUCUCUAGUUCUUAUUUUCACAGAGAGAAAUCGAAUAUUUUCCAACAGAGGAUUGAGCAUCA,0.18 ratio
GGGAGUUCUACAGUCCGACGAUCACGUCAGAUGACCUGACUGUUGUAGAUGCAGCUUCACUAAGACGACAGAUAAUCAAACUAAAUAGACGUCUACAACUUCUGGAAGAGGAGAACAAAGAACGUGCUAAAAGAGAAAUGGUCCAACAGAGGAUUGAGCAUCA,0.173 ratio
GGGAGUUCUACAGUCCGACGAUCGCUGCCCUUUCUGUUCGUAAUCUUUCACCUUAUGUUUCCAAUGAACUGUUGGAAGAAGCCUUUAGCCAAUUUGGUCCUAUUGAAAGGGCUGUUGUAAUAGUGGAUGAUCGUGGAAGAUCUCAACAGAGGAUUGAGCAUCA,0.18 ratio
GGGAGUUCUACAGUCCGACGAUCCGCCUCAUCUACCGCUCGGGCGGCGAAGACGAAAGUCGGCACGACGCGCUCGACACGCGGGUGCGGGGCGACCUCGGUGGCCCGCAGUUGACUCAUGUUGACCAAGCAAGCUUCCAGGUUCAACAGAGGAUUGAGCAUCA,0.041 ratio
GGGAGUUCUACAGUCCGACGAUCGUAAUCGACAAGAAACUUCGGAACCUGGAGAAGAAAAAGGGUAAACUUGAUGAUUACCAGGAACGAAUGAAUAAAGGGGAAAGGCUCAAUCAAGACCAGCUGGAUGCCGUAUCUAAGUACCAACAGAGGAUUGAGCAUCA,0.347 ratio
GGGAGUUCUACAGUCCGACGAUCAUGACCCUUGGACAGCAGGACGUUUCCAAAGUCCUGCUGGGACCACUCUCACCCUACACGAUAGAAUUUUUGCGGCAUCUGAAGAGCUUUUUCCAGGUUAUGUUUAAAGUUGAAACCAAGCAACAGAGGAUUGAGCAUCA,1.82 ratio
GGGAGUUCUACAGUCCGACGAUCUCACUAUUCUAUAUUAAAACUUUGUCAGAAAAUGAUGUGCUAUUCAAGUAAGUUUGUUUUACUUUUUUCUUAAAAGGAUAUUUUAACAUGCCUUAUUUAUUAUUGUUAUCAAAACAAAUACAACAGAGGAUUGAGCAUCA,0.894 ratio
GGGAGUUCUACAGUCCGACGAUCCUUGGACAGGAGAGGGCACUGGAACAGAUUUUGGAAUAUGAACUACUACUUAUACAACAACUUAAUUUUCACCUUAUUGUCCACAAUCCAUACAGACCAUUUGAAGGCUUCCUCAUCGAUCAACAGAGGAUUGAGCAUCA,1.48 ratio
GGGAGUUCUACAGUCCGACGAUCGAAGGUAUUCCUGACCAGAUGACGCUAAAGACCAUCUAUGAGAGAAUAUCAAAGAAUAUCCCAACAACUAAAGAUGUUGAGCCACUUCUUGAAAUUGAUGGAGAUAUAAGAAAUUUUGAACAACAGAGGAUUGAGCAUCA,0.158 ratio
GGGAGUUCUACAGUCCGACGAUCAUCAUGAGAAAUGAGGUGGCUCUAACUAACUACACCUUUGAAAAUGUGAGCUUUCAUGUUCUUCAUCAGCGUUUUCCCCUCUUUACCUUUCGAGUCUUGUCAGACUGGUUUGAUAACAAGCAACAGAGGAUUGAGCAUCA,0.139 ratio
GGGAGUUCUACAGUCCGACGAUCAGGAACGGUGGGAGUGGGUUAAAUACAGUGUCAGAUUCUUCUUGGAGGCAUAGUCAAGUUCCCAGAUCUUCAUCAAUGGUACUUGGUUCAUUUGGAACAGACUUGAUGAGAGAAAGGAGACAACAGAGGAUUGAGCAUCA,0.643 ratio
